{"data": "Assay results gathered from unrelated publications", "note": "Numbered parts are unrelated; each lists some results of a single study."}
{"data": "Study 1", "target": "Interferon regulatory factor 5, full length, phosphomimetic (IRF5, Homo sapiens, UniProt Q13568-2, residues 1-514, S451D/S453D/S456D/S462D)", "method": "protein-binding microarray", "molecule type": "double-stranded DNA, one strand shown", "medium": "in vitro", "tested at": "940 nM top", "setting": "60-bp whole probe", "with": "salmon DNA 0.4 mg/ml", "relative to": "random background probes", "reading": "higher = stronger binding", "constant ends, left off below": "GCCTAGCAC … GTCTTGATTCGCTTGACGCTGCTG"}
{"Oligonucleotide": "GACGGATTGGGGTTTCGGGACGTGCTA", "fitted relative affinity": "2.28 z-score"}
{"Oligonucleotide": "TTAGGGATCGGGTATCGGTTAGTGCTA", "fitted relative affinity": "3.32 z-score"}
{"Oligonucleotide": "TTAGGTATCCGTATCGGTTAGTGCTAG", "fitted relative affinity": "2.82 z-score"}
{"Oligonucleotide": "GACGATATCAGTTTAGAGACGTGCTAG", "fitted relative affinity": "0.212 z-score"}
{"Oligonucleotide": "TTAGGTTTCGGTTTCGCTTAGTGCTAG", "fitted relative affinity": "15.8 z-score"}
{"Oligonucleotide": "GACTGTCTCGGTTTCGGGACGTGCTAG", "fitted relative affinity": "6.56 z-score"}
{"Oligonucleotide": "GACGGTATCGGTATCGGGACGTGCTAG", "fitted relative affinity": "8.72 z-score"}
{"Oligonucleotide": "TCATATATATCATTTAAACTGTGCTAG", "fitted relative affinity": "0.789 z-score"}
{"Oligonucleotide": "TTACGTATCCTACTGCTTTAGTGCTAG", "fitted relative affinity": "0.391 z-score"}
{"Oligonucleotide": "GACGGACTGGGTTTCTGGACGTGCTAG", "fitted relative affinity": "0.227 z-score"}
{"Oligonucleotide": "GACGAACTGGGGACTAGAGACGTGCTA", "fitted relative affinity": "0.137 z-score"}
{"Oligonucleotide": "TCTTGTCTGGATGTGCCTTAGTGCTAG", "fitted relative affinity": "0.42 z-score"}
{"Oligonucleotide": "TCACTTTTGAGAGATGGAACTGTGCTA", "fitted relative affinity": "-0.0032 z-score"}
{"Oligonucleotide": "GACGGTTTCGCTCTCGGGACGTGCTAG", "fitted relative affinity": "8.73 z-score"}
{"Oligonucleotide": "TTAGGACTGCTTTCCCTTTAGTGCTAG", "fitted relative affinity": "-0.127 z-score"}
{"data": "Study 2", "target": "RING finger protein unkempt homolog, zinc fingers 1-6, GST-SBP tag (UNK, Homo sapiens, UniProt Q9C0B0, residues 30-357)", "method": "RNA Bind-n-Seq", "molecule type": "RNA", "medium": "in vitro", "tested at": "not given", "setting": "RNA with constant flanks, human and mouse sites, ends assumed", "relative to": "input RNA pool", "reading": "higher = stronger binding", "UniProt Q9C0B0, sequence (30-357, looked up)": "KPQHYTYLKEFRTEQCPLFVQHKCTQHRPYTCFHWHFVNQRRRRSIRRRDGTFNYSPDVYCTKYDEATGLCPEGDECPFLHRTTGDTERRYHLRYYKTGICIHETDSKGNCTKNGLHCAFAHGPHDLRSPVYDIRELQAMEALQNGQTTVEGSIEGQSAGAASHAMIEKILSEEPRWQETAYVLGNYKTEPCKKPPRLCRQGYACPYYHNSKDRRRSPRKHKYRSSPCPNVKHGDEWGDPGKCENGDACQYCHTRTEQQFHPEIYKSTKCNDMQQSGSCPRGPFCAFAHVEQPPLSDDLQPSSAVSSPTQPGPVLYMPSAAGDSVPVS"}
{"Oligonucleotide": "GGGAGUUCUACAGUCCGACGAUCAUUUAAAAACAAAAAAGCAUAAAUAUUCUGGUCCUUCAGCAAUGCUUUCUCUGAAGAAAUAUUUAACGGAAGGACUUCUCCAGUUCACCAUCCUGCUGAGUCUGAUUGGGGUUCGGGUGGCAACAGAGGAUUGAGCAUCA", "bound/input enrichment": "0.445 ratio"}
{"Oligonucleotide": "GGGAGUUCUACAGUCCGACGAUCCCUUCAGAAACAUUCAUAUUCAUUUUCAUGAGUCAGCAAAAGCCCUACGCUUGAUUCCAACAGAAUAUUUCCUUUACAUACUUUCUUCUCUUAAUUUUUACAAAAUUUGUAUGGUAGGUGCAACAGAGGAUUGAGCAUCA", "bound/input enrichment": "0.867 ratio"}
{"Oligonucleotide": "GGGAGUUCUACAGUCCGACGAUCAAUCACUUUGAAAUCCUCCCUCCUGAACUGGGUGACUGUCGGGCUCUGAAGCGAGCUGGUUUAGUUGUAGAAGAUGCUCUGUUUGAAACUCUGCCUUCUGACGUCCGGGAGCAAAUGAAACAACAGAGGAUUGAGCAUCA", "bound/input enrichment": "2.2 ratio"}
{"Oligonucleotide": "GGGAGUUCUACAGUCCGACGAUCAGAGACUUUGUGAGAGAUGCUACGUGGUCUCCACUCAAUCACUCCCUUCUUACCACAGUUGGCUGGGACCAUCAGGUCAUCCACCAUGUUGUGCCCUUAGAGCCUCUCCCAAACCCUGGACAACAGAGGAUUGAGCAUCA", "bound/input enrichment": "0.338 ratio"}
{"Oligonucleotide": "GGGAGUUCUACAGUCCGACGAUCAAGAAUGAGAUGGAGAUACAAAUGAAAUCAAAAAAGCUUCCAAUUACGCGAAAGUUUUAUGCCUUUUAUCAUGCACCAAUUGUAAAAUUCUGGUUUAACACGUUGGCAUAUUUAGGAUUUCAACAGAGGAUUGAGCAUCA", "bound/input enrichment": "0.598 ratio"}
{"Oligonucleotide": "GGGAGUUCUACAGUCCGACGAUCAUGCUCCGCCAGAUCCUCGGGCAAGCCAAGAAGCAUCCCAGCUUGAUUCCUCUCUUCGUAUUUAUUGGAGCAGGGGGUACUGGAGCAGCACUGUAUGUGAUGCGCUUGGCACUGUUUAAUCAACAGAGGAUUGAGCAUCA", "bound/input enrichment": "0.122 ratio"}
{"Oligonucleotide": "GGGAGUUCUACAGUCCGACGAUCUUCAGGAUGCUGGUGUCACGUUUUGCCAGUCGGUUUCGGAAAGACUCGAGCACUGAGAUGGUUAGAACCAACUUGGCUCAUAGAAAGUCUCUGUCUCAGAAGGAGAACAGACACAGGGUGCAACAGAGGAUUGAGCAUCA", "bound/input enrichment": "0.164 ratio"}
{"data": "Study 3", "target": "Sal-like protein 4, full length isoform B (SALL4, Homo sapiens, UniProt Q9UJQ4-2, residues 1-616)", "method": "universal PBM", "molecule type": "double-stranded DNA, one strand shown", "medium": "in vitro", "tested at": "not given", "setting": "8-mer, flanks averaged, mean of replicates", "reading": "higher = stronger binding"}
{"Oligonucleotide": "CACCCTAC", "E-score": -0.0464}
{"Oligonucleotide": "ACTTACCC", "E-score": 0.0259}
{"Oligonucleotide": "CGTTCAGC", "E-score": -0.202}
{"Oligonucleotide": "GATTTTAC", "E-score": 0.207}
{"Oligonucleotide": "CCTTTGAC", "E-score": -0.00656}
{"Oligonucleotide": "ACGTGTAT", "E-score": 0.174}
{"Oligonucleotide": "AACTGATA", "E-score": 0.192}
{"Oligonucleotide": "ATGCCGGG", "E-score": -0.324}
{"Oligonucleotide": "AGAGGTGG", "E-score": -0.0676}
{"Oligonucleotide": "AGCAGACG", "E-score": -0.302}
{"data": "Mixed results"}
{"Molecule": "PhoQ, residues 284 288 289 292 302 303 SSCCRF", "target": "PhoP, residues 12 14 15 18 19 TQAIL (Escherichia coli, UniProt P23836)", "test": "Sort-seq, refers to: YFP reporter", "test system": "E. coli", "setting": "PhoQ-PhoP variant library, with: 10 µM Mg2+", "scale": "relative to: high Mg2+ state, higher = stronger signaling", "measurement": "fold induction", "result": 20.8}
{"note": "Excerpt of the above (study 3):"}
{"Oligonucleotide": "GATTTTAC", "E-score": 0.207}
{"Oligonucleotide": "CCTTTGAC", "E-score": -0.00656}
{"Oligonucleotide": "ACGTGTAT", "E-score": 0.174}
